{"data": "Published values collected from several papers", "note": "Parts stem from different laboratories: compare values within a part only. Substitutions count along the parent as printed.", "sequence of UniProt Q8NE63 (whole entry, looked up)": "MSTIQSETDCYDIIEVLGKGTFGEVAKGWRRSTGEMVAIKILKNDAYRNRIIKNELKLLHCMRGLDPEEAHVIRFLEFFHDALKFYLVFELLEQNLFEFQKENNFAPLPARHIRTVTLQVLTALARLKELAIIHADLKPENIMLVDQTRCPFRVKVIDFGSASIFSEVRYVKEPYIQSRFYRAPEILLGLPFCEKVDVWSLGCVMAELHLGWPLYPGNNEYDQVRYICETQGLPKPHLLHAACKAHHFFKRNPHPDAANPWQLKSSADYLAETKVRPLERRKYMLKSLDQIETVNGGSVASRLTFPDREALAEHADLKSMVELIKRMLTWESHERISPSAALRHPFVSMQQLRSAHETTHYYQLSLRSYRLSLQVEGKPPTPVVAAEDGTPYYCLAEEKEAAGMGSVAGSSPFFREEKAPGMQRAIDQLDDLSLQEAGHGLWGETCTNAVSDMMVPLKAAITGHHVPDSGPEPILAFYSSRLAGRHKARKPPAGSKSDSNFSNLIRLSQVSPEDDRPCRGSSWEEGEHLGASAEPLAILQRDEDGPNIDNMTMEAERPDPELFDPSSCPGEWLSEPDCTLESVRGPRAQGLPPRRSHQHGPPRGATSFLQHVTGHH"}
{"data": "Series 1", "target": "CRIPT, C-terminal peptide", "method": "DHFR complementation, deep sequencing", "matrix": "yeast", "setting": "single substitutions, model-inferred values", "relative to": "wild type", "reading": "higher = weaker binding", "starting sequence": "ERBIN, PDZ domain 1 (human); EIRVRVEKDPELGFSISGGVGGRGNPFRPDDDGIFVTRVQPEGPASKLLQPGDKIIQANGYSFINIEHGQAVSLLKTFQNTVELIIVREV; partner TKNYKQTSV"}
{"Variant": "T81Q", "binding free energy change": "-0.0272 kcal/mol"}
{"Variant": "S15N", "binding free energy change": "0.967 kcal/mol"}
{"Variant": "L75A", "binding free energy change": "0.628 kcal/mol"}
{"Variant": "V20H", "binding free energy change": "0.0255 kcal/mol"}
{"Variant": "R38D", "binding free energy change": "0.306 kcal/mol"}
{"Variant": "R3E", "binding free energy change": "0.0548 kcal/mol"}
{"Variant": "V82L", "binding free energy change": "1.6 kcal/mol"}
{"Variant": "H68K", "binding free energy change": "1.5 kcal/mol"}
{"data": "Series 2", "target": "Sox, HMG box (Pigoraptor chileana)", "method": "Spec-seq", "molecule type": "double-stranded DNA, one strand shown", "matrix": "in vitro", "tested at": "not given", "setting": "whole probe, mean of replicates", "relative to": "not given", "reading": "lower = stronger binding", "constant ends, left off below": "GAGTCGTCTCGTCAGCAC … CCGTAGAGCACTCAGGTC", "Residues (chain)": "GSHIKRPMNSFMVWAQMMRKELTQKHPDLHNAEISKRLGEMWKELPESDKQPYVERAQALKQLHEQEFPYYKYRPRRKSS"}
{"Oligonucleotide": "CATACCA", "relative binding energy [ln ratio]": 0}
{"Oligonucleotide": "CATATCG", "relative binding energy [ln ratio]": 0.416}
{"Oligonucleotide": "GTAGGTT", "relative binding energy [ln ratio]": 1.39}
{"Oligonucleotide": "GCTTGTT", "relative binding energy [ln ratio]": -1.95}
{"Oligonucleotide": "CATTCAC", "relative binding energy [ln ratio]": -0.149}
{"Oligonucleotide": "CATTCGC", "relative binding energy [ln ratio]": 0.735}
{"Oligonucleotide": "TTCGGTT", "relative binding energy [ln ratio]": 0.709}
{"Oligonucleotide": "CATATTC", "relative binding energy [ln ratio]": 0.261}
{"data": "Series 3", "target": "Ras GTPase-activating protein-binding protein 1, C-terminal RGG region (G3BP1, Homo sapiens, UniProt Q13283)", "method": "RNA Bind-n-Seq", "molecule type": "RNA", "matrix": "in vitro", "tested at": "1 µM", "setting": "whole 134-nt RNA, ends assumed", "added": "150 mM KCl", "relative to": "input library", "reading": "higher = stronger binding", "constant ends, left off below": "GGGAGUUCUACAGUCCGACGAUC … UGGAAUUCUCGGGUGUCAAGG", "sequence of UniProt Q13283 (whole entry, looked up)": "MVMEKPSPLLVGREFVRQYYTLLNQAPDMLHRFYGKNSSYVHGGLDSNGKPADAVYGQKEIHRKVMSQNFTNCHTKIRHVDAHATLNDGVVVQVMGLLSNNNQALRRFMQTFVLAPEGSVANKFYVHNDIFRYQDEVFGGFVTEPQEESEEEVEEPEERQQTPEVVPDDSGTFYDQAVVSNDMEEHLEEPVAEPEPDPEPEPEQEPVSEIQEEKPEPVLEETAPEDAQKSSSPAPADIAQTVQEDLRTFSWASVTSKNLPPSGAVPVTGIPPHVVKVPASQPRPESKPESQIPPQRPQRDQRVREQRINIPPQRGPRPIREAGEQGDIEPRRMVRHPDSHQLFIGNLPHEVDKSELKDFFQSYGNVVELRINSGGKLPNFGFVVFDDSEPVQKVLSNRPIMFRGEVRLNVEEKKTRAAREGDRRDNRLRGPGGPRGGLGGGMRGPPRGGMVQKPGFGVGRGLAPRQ"}
{"Oligonucleotide": "UCAAGUCCUGUGCUACACAUCGUAUGUACCGAAUCGGGAAGGGGAAGGAAGGGGAAAGUAUUAUGUUACGCCGUUCGGAUCUGCACUUCC", "log2 enrichment": 0.944}
{"Oligonucleotide": "UCAAGUCCUGUGCUACACAUCGUAUGUACCGAAUCGGAAAAAGGAAAAAGGUGGAAAGUAUUAUGUUACGCCGUUCGGAUCUGCACUUCC", "log2 enrichment": -1.4}
{"Oligonucleotide": "AAGUCCUGUGCUACACAUCGUAUGUACCGAAUCGGGGAAAGGGGAAAGGGGAGGGGAAAGUAUUAUGUUACGCCGUUCGGAUCUGCACUU", "log2 enrichment": 3.26}
{"Oligonucleotide": "UAACUUUAGAGGAGGAUCUGAUGGAUAAGGCAGUGGACGUGGAUUUGGGGAUGGCUAUAAUGGGUAUGGAGGAGGACCUGGAGGUGGCAA", "log2 enrichment": -1}
{"Oligonucleotide": "UCCUGUGCUACACAUCGUAUGUACCGAAUCGGGGUUUUUUUGGGGUGGGGUUUUUGGGGAAAGUAUUAUGUUACGCCGUUCGGAUCUGCA", "log2 enrichment": 1.55}
{"Oligonucleotide": "CUCAAGUCCUGUGCUACACAUCGUAUGUACCGAAUCGGCCGGGGCCGGGGCCGGAAAGUAUUAUGUUACGCCGUUCGGAUCUGCACUUCC", "log2 enrichment": -1.75}
{"Oligonucleotide": "UAACUUUAGAGGAGGAUCUUAUGGAUAUGGCAGUGGACGUGGAUUUGGGGAUGGCUAUAAUGGGUAUGGAGGAGGACCUGGAGGUGGCAA", "log2 enrichment": -1.21}
{"Oligonucleotide": "UUCGACGAAACAAUUCGAAAGCCCAUCAGUUUGGGUUGUGGCCAUACUGUCUGCAAGAUGUGCCUGAAUAAACUCCACCGCAAGGCUUGC", "log2 enrichment": -0.173}
{"data": "Single results of other studies"}
{"Compound": "Cc1nc(C2CCN(C(=O)c3ccc(OC(F)(F)F)cc3N)CC2)c2ncc(N3CCN(C)CC3)cc2n1", "target": "Homeodomain-interacting protein kinase 4 (HIPK4, Homo sapiens, UniProt Q8NE63)", "read-out": "cell-free assay", "method": "competition with immobilised ligand", "tested at": "1 µM", "quantity": "remaining binding", "result": "88%"}
